Measurements collected from several papers.
Numbered parts are unrelated; each lists some results of a single study. Positions count from the first letter of the parent shown.

Series 1 — method: RNA Bind-n-Seq; molecule type: RNA; sample: in vitro; tested at: 365 nM; relative to: no-protein control; reading: higher = stronger binding; endpoint: RBNS enrichment (R)
Target: RNA binding protein fox-1 homolog 2, RRM domain, GST-SBP tag (RBFOX2, Homo sapiens, UniProt O43251-10, residues 100-194)
Setting: natural RNA segment, single round, ends assumed
Constant ends, left off below: GGGAGUUCUACAGUCCGACGAUC … UGGAAUUCUCGGGUGCCAA
Construct (chain): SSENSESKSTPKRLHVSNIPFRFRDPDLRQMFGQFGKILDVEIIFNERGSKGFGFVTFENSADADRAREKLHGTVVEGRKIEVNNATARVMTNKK
Oligonucleotide = GCGUGUGCGUGGAGCCACAGUACCUCCUACACUCCCUGAGGCUCCGACUUGGGGAAAUAAAUUUCCCACCUCGUCGGCCCCAGCUCUGUUUCUGCCACUCCUGUCCAAGC; value = 0.756
Oligonucleotide = UCGGUUCUCCUCUUCCUCCACGCCGCCCCCUGAGCCCCCCUACAUCGGUCCCCCUGCUGCUCUGUCCACUACAAGGUCAGCCACCUGCCAGGAGGCCACAGACAACAGGA; value = 0.41
Oligonucleotide = GACCUUCAACCAUUGGACCAAGAAGUCAUUGCUUAUGGGUCUCAGGGGCCAUCAAACUGUCUACCUGAUGCUGUGGUUUCUGCUUAGAGAUCUGGAGGAGGGCAGCGGAG; value = 0.413
Oligonucleotide = GUCCACACUAGAAAGAAGCUCGCCCCACCUCCACCUGUGAGAUCCGUGAAUUCUCGGAAUGGCAGGGGAAGCCUUGCACUAGGUUGCAGAGAAGCAUCCUCCACAUCCUG; value = 1.38
Oligonucleotide = CUAAUGUCAUGGCUGUGGGAUAUUAGAGAAGUGGGUUUAUGACUCUGAAGACCAGCAGACACCAGACUUUAAAAGUGCUUAAAUUGGAAUUUGGAAACUACAGUAAAGAA; value = 0.609
Oligonucleotide = GGGCAGGGCUGGGACAGGCUGGCAGGUGGACACUGCCUGCAGGGUCUUCCCUGAUCCCACCAUCCUACCUACGCCCCCCCUCCCCUCAGCCCUAGUCUCCUCCAUUGACA; value = 1.01
Oligonucleotide = CGGCCCUGCUCGAUGCAGGGUCUGCAGUGGCCUGAGGGCAGCCAGGCACUGCAUGCCUGUCUCCUUAUGAGGAAGGCUGCAAAUUUCAGAGAAAGGGAGGUGAGGUUUCC; value = 0.453
Oligonucleotide = GUAUUCAUUUAUGCCUAAAUCUCUAUAACAGAUGAAAAGAUAAUUAAUAAAAUCCUAAUUAAAAAAUGAGAUCACCCACUAUCUAUCACUGCUUAGAUAAAAAGGGAAAG; value = 0.354
Oligonucleotide = UGUUUGAGAAAUUAUUUUUUUACAGAUCUUUAUAAAAAAUAAACAUCUUUUGAUUGCUUGGAUUUAGGAAUUCAGUUUUUGUUUUAAUGACCAAUGUCAAGUUUCAGGUU; value = 1.79
Oligonucleotide = AAGCUGAGUGAUUUUUUUUUUUUCAUCAAUCCACACAUUUUUGUCCAUUGCUGUAAGAGAAGAAAACAUCUGAAAUGAGUAUGUUGAGCUUGAGGAAAAUUGUAUCAUAU; value = 1.44
Oligonucleotide = AGGGUCGGUGGCUGCCUCGCUCCGUCCACCCGUGUGUGUGUCCGGUGGGUCUCCACUGCGGGGCCAGGGCCACGCUCACCCCUCUCGCGGCCCCUCCUCUGCUUCCCCCU; value = 0.534
Oligonucleotide = CUUUUCAUAUAUUUUUGCUGAAGAAUAUAUGGAAAGGGUGGCAUUUGCGUCACGUGGACCAGGGACAGUGCUGAAAUCAGCAGUGCUCAGAAACAAUUUAACAUGUUGAA; value = 0.235

Series 2 — method: RNAcompete; molecule type: RNA; sample: in vitro; tested at: 20 nM; setting: 7-mer, probes averaged, single round; relative to: mean of 7-mers; reading: higher = stronger binding; endpoint: 7-mer Z-score
Target: PABPC1L2, full length, GST fusion (mouse, UniProt A0ABA7IW68)
Oligonucleotide = GCGUACG; value = -0.284
Oligonucleotide = CUGGCCC; value = -0.425
Oligonucleotide = CAGACCU; value = -0.0754
Oligonucleotide = CCGAUGG; value = -0.117
Oligonucleotide = GUUGAGG; value = 0.000733
Oligonucleotide = AGAGAGC; value = 0.00617
Oligonucleotide = UCACGAG; value = -0.206
Oligonucleotide = GGAAAAG; value = 2.05
Oligonucleotide = AUCCACA; value = -0.0699
Oligonucleotide = AAGCCGC; value = -0.15
Oligonucleotide = AGUGGCU; value = 0.113
Oligonucleotide = GGUCUCA; value = -0.108
Oligonucleotide = CGGCGUU; value = -0.267
Oligonucleotide = AAUCAAU; value = 0.186
Oligonucleotide = CAGGUUC; value = -0.209
Oligonucleotide = CGAGGAA; value = 0.318
Oligonucleotide = UUGCCCU; value = -0.387
Oligonucleotide = CUCCCAU; value = -0.338
Oligonucleotide = UACAUCC; value = -0.306
Oligonucleotide = AAGGCGG; value = 0.341
Oligonucleotide = CUGUACG; value = -0.278

Series 3 — method: DHFR PCA, dose-response; sample: yeast; setting: Hill fit, mean, not affinity; together with: (+)-ABA, dose series; reading: lower = more sensitive; endpoint: ABA EC50
Target: ABI1, truncated, D143A, DHFR fusion (Arabidopsis thaliana, UniProt P49597)
Parent: PYL1, truncated, DHFR fusion (Arabidopsis thaliana, UniProt Q8VZS8); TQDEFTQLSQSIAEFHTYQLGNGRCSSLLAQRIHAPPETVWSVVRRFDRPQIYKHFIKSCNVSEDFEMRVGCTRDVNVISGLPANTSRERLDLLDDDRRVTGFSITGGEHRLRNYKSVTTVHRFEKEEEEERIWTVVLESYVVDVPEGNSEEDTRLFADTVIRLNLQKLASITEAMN
Variant = G108K; value = 698 µM
Variant = E14W; value = 49.6 µM
Variant = Y53R; value = 82.5 µM
Variant = M176N; value = 4.67 µM
Variant = Y53P; value = 401 µM
Variant = Y18D; value = 40 µM
Variant = R132Q; value = 0.852 µM
Variant = V143S; value = 76.7 µM
Variant = M68E; value = 25.5 µM
Variant = E147Y; value = 3.21 µM
Variant = V145L; value = 11.4 µM
Variant = Q10E; value = 2.73 µM
Variant = V44I; value = 3.83 µM
Variant = Q7R; value = 3.13 µM
Variant = N22G; value = 2.8 µM
Variant = R32A; value = 3.23 µM
Variant = L8N; value = 12.1 µM
Variant = A158V; value = 0.196 µM
Variant = E38M; value = 102 µM
Variant = Y141F; value = 26.1 µM
Variant = T6Y; value = 10.8 µM
Variant = L8Y; value = 4.1 µM
Variant = Q167T; value = 1.59 µM
Variant = A30F; value = 1.91 µM
Variant = P146E; value = 492 µM

Series 4 — method: universal PBM; molecule type: double-stranded DNA, one strand shown; sample: in vitro; tested at: 600 nM; reading: higher = stronger binding; endpoint: E-score
Target: Sal-like protein 4, full length isoform A (SALL4, Homo sapiens, UniProt Q9UJQ4, residues 1-1053)
Chain of UniProt Q9UJQ4 (whole entry, looked up): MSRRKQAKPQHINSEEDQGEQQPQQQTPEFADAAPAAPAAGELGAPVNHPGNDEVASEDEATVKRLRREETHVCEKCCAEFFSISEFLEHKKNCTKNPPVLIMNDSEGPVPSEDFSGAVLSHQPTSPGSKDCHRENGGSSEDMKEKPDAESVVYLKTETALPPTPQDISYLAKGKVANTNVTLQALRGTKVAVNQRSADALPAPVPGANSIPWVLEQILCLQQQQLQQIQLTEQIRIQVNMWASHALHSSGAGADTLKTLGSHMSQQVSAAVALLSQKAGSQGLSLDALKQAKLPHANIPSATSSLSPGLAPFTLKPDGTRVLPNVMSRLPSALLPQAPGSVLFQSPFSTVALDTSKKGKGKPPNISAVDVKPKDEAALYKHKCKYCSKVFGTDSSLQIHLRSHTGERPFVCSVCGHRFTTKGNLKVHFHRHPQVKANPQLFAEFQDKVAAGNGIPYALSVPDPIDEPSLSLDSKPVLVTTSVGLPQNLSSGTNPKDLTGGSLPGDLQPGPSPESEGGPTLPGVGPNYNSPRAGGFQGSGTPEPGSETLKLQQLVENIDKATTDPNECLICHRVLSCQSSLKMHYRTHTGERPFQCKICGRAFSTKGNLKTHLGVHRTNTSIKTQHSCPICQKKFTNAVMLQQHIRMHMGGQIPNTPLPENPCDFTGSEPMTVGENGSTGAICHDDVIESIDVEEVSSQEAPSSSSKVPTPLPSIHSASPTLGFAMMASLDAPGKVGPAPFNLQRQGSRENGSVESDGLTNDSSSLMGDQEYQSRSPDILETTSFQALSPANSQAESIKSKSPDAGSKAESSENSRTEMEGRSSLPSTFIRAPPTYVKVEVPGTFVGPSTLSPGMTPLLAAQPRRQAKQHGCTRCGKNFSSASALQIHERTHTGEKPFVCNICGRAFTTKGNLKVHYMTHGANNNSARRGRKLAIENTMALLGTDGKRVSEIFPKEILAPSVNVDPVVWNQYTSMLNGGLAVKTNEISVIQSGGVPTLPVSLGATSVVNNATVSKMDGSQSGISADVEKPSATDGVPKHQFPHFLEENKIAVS
Setting: 8-mer, flanks averaged, mean of replicates
Oligonucleotide = CACCTTAG; value = -0.114
Oligonucleotide = CAGGCTTC; value = -0.183
Oligonucleotide = GAGTTGAC; value = -0.111
Oligonucleotide = AAACCATA; value = 0.286
Oligonucleotide = CCCAACGA; value = -0.0611
Oligonucleotide = ACGGCAGT; value = -0.104
Oligonucleotide = CGATGCTA; value = 0.0502
Oligonucleotide = ACGCATAT; value = 0.179
Oligonucleotide = CCACGAAG; value = -0.108
Oligonucleotide = TATTTCAA; value = 0.4
Oligonucleotide = AGCGGCTG; value = -0.239
Oligonucleotide = ATGCTCAG; value = 0.0429
Oligonucleotide = AACATGGC; value = -0.0766
Oligonucleotide = ACCTAGTG; value = -0.0553
Oligonucleotide = AATCAGGC; value = -0.0751
Oligonucleotide = AACGATGG; value = -0.122
Oligonucleotide = GCGCTACC; value = -0.209
Oligonucleotide = AATTCTTC; value = 0.121
Oligonucleotide = AAAATCAA; value = 0.28

Series 5 — method: RNA Bind-n-Seq; molecule type: RNA; sample: in vitro; tested at: not given; relative to: input RNA pool; reading: higher = stronger binding; endpoint: bound/input enrichment
Target: RING finger protein unkempt homolog, zinc fingers 1-6, GST-SBP tag (UNK, Homo sapiens, UniProt Q9C0B0, residues 30-357)
Chain of UniProt Q9C0B0 (30-357, looked up): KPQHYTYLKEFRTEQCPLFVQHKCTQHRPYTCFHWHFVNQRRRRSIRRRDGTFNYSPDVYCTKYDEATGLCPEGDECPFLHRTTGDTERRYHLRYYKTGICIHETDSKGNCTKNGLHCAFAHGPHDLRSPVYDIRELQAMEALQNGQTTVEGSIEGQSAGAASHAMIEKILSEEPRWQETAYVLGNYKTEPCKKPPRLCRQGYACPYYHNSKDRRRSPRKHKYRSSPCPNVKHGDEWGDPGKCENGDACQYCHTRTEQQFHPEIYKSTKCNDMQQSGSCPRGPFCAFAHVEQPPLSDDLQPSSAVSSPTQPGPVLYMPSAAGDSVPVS
Setting: RNA with constant flanks, human and mouse sites, ends assumed
Constant ends, left off below: GGGAGUUCUACAGUCCGACGAUC … CAACAGAGGAUUGAGCAUCA
Oligonucleotide = AUGAAUUCAUCUAAGAUCAUUCUUGAUUUUUUUAAAUCCUACACAUAAAUUGAAGCUUUAUGGUGUUGAAGUAAUCCAACACCUUAGUUACAUUUCAUUUUUGCUAAACUAUUCAAGUUG; value = 0.272 ratio
Oligonucleotide = AAACCUUCAACUGUAGAAGUUCUAGAAAGUAUAGAUAAGGAAAUUCAAGCAUUGGAAGAAUUUAGGGAAAAAAAUCAGAGAUUACAAAAAUUAUGGGUUGGAAGAUUAAUUCUGUAUUCC; value = 11.1 ratio
Oligonucleotide = CCCGACGAUGAGGCCGCCAUGGGUAUUAAGAGCUGCGACCCCAAAGGCCCACUUAUGAUGUACAUUUCCAAGAUGGUGCCAACCUCUGACAAAGGCCGCUUCUAUGCCUUUGGUAGAGUG; value = 0.327 ratio
Oligonucleotide = UUUGCCACAGGUGGUUCUGAUGGCUUUGUAAAUAUUUGGGAUCCAUUUAACAAAAAGCGACUGUGCCAAUUCCAUCGGUACCCCACGAGCAUCGCAUCACUUGCCUUCAGUAAUGAUGGG; value = 0.169 ratio
Oligonucleotide = UUGUUCAUUGCUAAGUUCCUGUCUGACUUUAUUGUAACUUCUGAAAGGCUAGAUUUCCUCUCUGCUCUUCUCUUCAGCAAUAGGGAAAGAAAAUGGACUUGAGAGUGUCCGGUGAAGGCU; value = 0.667 ratio
Oligonucleotide = AAGAAAGAAAUGCAGCCUACACACCCGAUUCGCCUCGGCCUGGCGCUGAAUUUCUCAGUCUUUUACUAUGAGAUUCUAAACUCUCCUGAAAAGGCCUGCAGCCUGGCCAAAACGGCAUUU; value = 0.141 ratio
Oligonucleotide = GCUCAGAGGGCCAUUAGUUCUGUUCCAGUUGGUAGACAACCCAUCAUCAUGCAGAGUACUAGCAAAUUUAACUUUACACCAGGGCGACCUGGAGUUCAGAAUGGUGGUGGUCAGUCUGAU; value = 0.691 ratio
Oligonucleotide = UGCAGAAGGCCCAGAUCGUUAAGUUAAUCAAAUUUUCAAAGGAGCAUCCUAUUACCUUAGCAAUUGGUGAUGGUGCAAAUGAUGUCAGUAUGAUCCUGGAGGCCCACGUGGGCAUAGGUG; value = 1.6 ratio
Oligonucleotide = UUCAAAGAAAAGGGCAGCUGUGUCAUUUCAUAAGUAACUCUGGGGGAGGGAAAUUCUGUUCUUUUGUUUAAUUUUCCCCCAAAUGAAGCCAAAGUGUGUGUUGAAGAACUGAGAAAAAAU; value = 0.133 ratio
Oligonucleotide = UGGUUUCUAACAGCUGAAGGCAAUGAAUGGCUACUUCAAGGACAGAUAGCAGCUGGAGAUAUAGAGAACAUUUCCAGUCAACCAACAAUUUCACUACAAAUUCCUGAUGAUUGCUUAUCA; value = 0.21 ratio
Oligonucleotide = AGAAACAACAGUGGAGAUAUUCAAUAAGCUCAACCUUGAACAUAUUGCUACCAGUAGUGCAGUUUCAAAGGAACUCACCAGACUUUUGAAAAUACCAGUUGACACUUACAACAAUAUUUU; value = 0.133 ratio

Series 6 — method: protein binding microarray; molecule type: double-stranded DNA, one strand shown; sample: in vitro; tested at: not given; relative to: not given; reading: higher = stronger binding; endpoint: E-score
Target: Histone acetyltransferase KAT6A, winged helix 1, GST fusion (KAT6A, Homo sapiens, UniProt Q92794, residues 1-85)
Setting: 8-mer, flanks averaged, mean of 2 arrays, mostly near background
Target sequence (chain): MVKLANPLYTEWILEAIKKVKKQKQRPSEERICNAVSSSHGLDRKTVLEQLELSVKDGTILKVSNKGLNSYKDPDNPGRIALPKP
Oligonucleotide = GCGACAGA; value = 0.16
Oligonucleotide = GCGCTAGA; value = 0.268
Oligonucleotide = CATGAAAA; value = -0.223
Oligonucleotide = AGACGTCG; value = 0.127
Oligonucleotide = AACCTCCG; value = 0.0367
Oligonucleotide = GAACATCC; value = -0.0801
Oligonucleotide = GGCAAGCA; value = -0.0254
Oligonucleotide = CACGCCGG; value = 0.347
Oligonucleotide = ACAGCACA; value = -0.0712
Oligonucleotide = CTTAGGTC; value = -0.0609
Oligonucleotide = AATTCAGC; value = -0.0694
Oligonucleotide = GGTTCCCA; value = -0.178
Oligonucleotide = GGGCATGA; value = -0.0491
Oligonucleotide = CACTCTTC; value = -0.14
Oligonucleotide = GATGTATA; value = -0.15
Oligonucleotide = GAGGAAAA; value = -0.209
Oligonucleotide = ACGAACAG; value = 0.0402
Oligonucleotide = ATTCACCA; value = -0.193
